Published values from different studies.
Compare with care: the assays were run in different laboratories.
Target: Bone morphogenetic protein receptor type-2 (BMPR2, Homo sapiens, UniProt Q13873)

| Structure (SMILES) | effect on | mode | method | tested at | baseline | endpoint | result |
| --- | --- | --- | --- | --- | --- | --- | --- |
| COc1cc(Nc2nc(C)cc(-c3cnn4nc(OC)ccc34)n2)cc(C(F)(F)F)c1 |  | inhibitor |  | 1 µM | control | remaining activity | 100% |
| CNC1C[S+]2CC[S+]3CC[S+](C1)[Ru-4]321([N]=C=S)[n]2c3ccc(OC)cc3c3c4c(c5cc(F)c[n+]1c5c32)C(=O)NC4=O (stereo not shown) |  |  | KinomeScan | 0.1 µM | untreated | remaining binding | 100% |
| C=CC(=O)N1CCCC(n2c(=O)c3ncccc3n(Cc3ccc(Oc4ccccc4)cc3)c2=O)C1 (stereo not shown) | cell-free assay |  | competition with immobilised ligand | 1 µM |  | remaining binding | 76% |
| CC(C)=CC1OC(C)(C)C2C=C3C(=O)C(Cl)=CC(O)C3C3C(O)C4OC4C(=O)C132 (stereo not shown) | cell-free assay |  | competition with immobilised ligand | 10 µM |  | remaining binding | 77% |
| CC(=O)N1c2ccc(-c3ccc(CNC(=O)c4cn5cc(-c6cnc(N)nc6)nc(N6CCOCC6)c5n4)cc3)cc2CC[C@@H]1C |  |  | KINOMEscan | 10 µM |  | remaining binding | 85% |
| Cc1cnc2nc1Nc1cccc(c1)COC/C=C/COCc1cc(ccc1OCCN1CCOCC1)N2 | binding |  |  | 0.1 µM |  | remaining binding | 90% |
| NC(=O)C[C@H]1CCc2sc3ncnc(O[C@H]4CC[C@H](N5CCOCC5)CC4)c3c21 | enzyme activity | inhibitor |  | 10 µM |  | inhibition | 17% |
| C=CC(=O)N1Cc2nc(-c3cc(-c4cc(Cl)cnc4Cl)c(F)cc3F)n(-c3ccncn3)c2C1 | cell-free assay |  |  | 1 µM |  | inhibition | -1.4% |
| O=C(Cc1ccc(OCc2ccccc2)cc1)NC1(C(=O)O)CCN(C(=O)c2ccc(-c3cccc(Cl)c3)cc2)CC1 | enzyme activity | inhibitor |  | 10 µM |  | activity vs control | 114% |
| CNS(=O)(=O)Nc1nccc(Cc2c(C)c3ccc(Oc4ncccc4F)cc3oc2=O)c1F | cell-free assay |  | competition with immobilised ligand | 10 µM |  | remaining binding | 100% |
| CN1CCN(Cc2ccc(NC(=O)c3cccc(C#Cc4cnc(N)c5ncccc45)c3)cc2C(F)(F)F)CC1 | cell-free assay |  | competition with immobilised ligand | 0.5 µM |  | remaining binding | 100% |
| CNC(=O)C[C@H](Cc1ccc(C#N)cc1)NC(=O)c1cc(-c2ccc(CN[C@H](C)c3ccc(C)cc3)o2)ccc1Cl | enzyme activity | inhibitor |  | 1 µM |  | activity vs control | 98% |
| C=C1CCCCCCCCCC(CO)C1=O (stereo not shown) | cell-free assay |  |  | 10 µM |  | remaining signal | 75% |

Excerpt of the above:
| Structure (SMILES) | effect on | mode | method | tested at | baseline | endpoint | result |
| --- | --- | --- | --- | --- | --- | --- | --- |
| O=C(Cc1ccc(OCc2ccccc2)cc1)NC1(C(=O)O)CCN(C(=O)c2ccc(-c3cccc(Cl)c3)cc2)CC1 | enzyme activity | inhibitor |  | 10 µM |  | activity vs control | 114% |
| CNS(=O)(=O)Nc1nccc(Cc2c(C)c3ccc(Oc4ncccc4F)cc3oc2=O)c1F | cell-free assay |  | competition with immobilised ligand | 10 µM |  | remaining binding | 100% |
